Results gathered from unrelated publications.
Protocols differ between the studies behind these lines. ± marks the error that the study gave.

SMILES = O=C([O-])c1cccc(CN(CCN(Cc2cn(Cc3ccccc3)nn2)Cc2cccc(C(=O)[O-])n2)Cc2cn(Cc3ccccc3)nn2)n1.[64Cu+2]; system = nude athymic mice, healthy, femur; conditions = intravenous, 4 h, 64Cu label; tissue uptake = 2.38 %ID/g
SMILES = CN1C(=O)[C@@H](Cc2ccc(O)c(I)c2)NC(=O)CNC(=O)[C@H](Cc2ccc3ccccc3c2)NC(=O)[C@H](CCCNC(=N)N)NC(=O)[C@H]1CCCNC(=O)c1ccc(CNC(=O)CN2CCN(CC(=O)O)CCN(CC(=O)O)CCN(CC(=O)O)CC2)cc1 [lutetium-177 labelled]; assay = measured: 177Lu radioactivity; system = female CB-17 SCID mice, Daudi xenograft, blood; conditions = intravenous, 0.16 nmol per mouse, 1 h; tissue uptake = 1.3 ± 0.4 %ID/g
SMILES = CCCC[C@H](NC(=O)CN1CCC(NC(=O)CN2CCN(CC(=O)O)CCN(CC(=O)O)CCN(CC(=O)O)CC2)CC1)C(=O)N[C@H]1CC(=O)NCCCC[C@@H](C(N)=O)NC(=O)[C@H](Cc2c[nH]c3ccccc23)NC(=O)[C@H](CCCNC(=N)N)NC(=O)[C@@H](Cc2ccccc2)NC(=O)[C@H](Cc2c[nH]cn2)NC1=O [gallium-68 labelled]; system = C57BL/6J mice male B16-F10 tumour, intestine; conditions = 1 h post injection, unblocked; tissue uptake = 0.7 ± 0.5 %ID/g
SMILES = O=C([O-])CN1CCN(CC(=O)[O-])CCN(CC(=O)NCCc2ccc3c(c2)C2C=CCC2C(c2cc4c(cc2Br)OCO4)N3)CCN(CC(=O)[O-])CC1.[111In+3] (centres unmarked); system = mice with Hec50 tumour xenograft, mammary gland; conditions = 4 h; tissue uptake = 0.5 ± 0.07 %ID/g
SMILES = NC12CNCCNCC(NCc3ccc(CNC(=O)CCCC(=O)NCc4ccc(-c5nncnn5)cc4)cc3)(CNCCNC1)CNCCNC2.[64Cu+2]; system = athymic nude mice, SW1222 xenograft, stomach with contents; conditions = 4 h, pretargeting with huA33-TCO, 24 h interval; tissue uptake = 0.56 ± 0.2 %ID/g
SMILES = CCCC[C@H](NC(=O)CNC(=O)CNC(=O)CN1CCN(CC(=O)O)CCN(CC(=O)O)CC1)C(=O)N[C@H]1CC(=O)NCCCC[C@@H](C(N)=O)NC(=O)[C@H](Cc2c[nH]c3ccccc23)NC(=O)[C@H](CCCNC(=N)N)NC(=O)[C@@H](Cc2ccccc2)NC(=O)[C@H](Cc2c[nH]cn2)NC1=O [gallium-67 labelled]; system = female C57 mice, B16/F1 melanoma, liver; conditions = intravenous, 0.037 MBq, 2 h; tissue uptake = 0.59 ± 0.09 %ID/g
SMILES = O=C([O-])CN1CCN(CC(=O)[O-])CCN(CC(=O)[O-])CCN(CC(=O)[O-])CC1.[64Cu+2]; system = healthy athymic nude mice, kidney; conditions = intravenous, 4 h; tissue uptake = 1.59 %ID/g
SMILES = CCCC[C@@H]1NC(=O)[C@@H](NC(=O)[C@H](CCC(=O)O)NC(=O)CNC(=O)CN2CCN(CC(=O)O)CCN(CC(=O)O)CCN(CC(=O)O)CC2)CCCCNC(=O)C[C@@H](C(N)=O)NC(=O)[C@H](C(C)C)NC(=O)[C@@H]2CCCN2C(=O)[C@H](CCCNC(=N)N)NC(=O)CNC(=O)[C@H](Cc2c[nH]c3ccccc23)NC(=O)[C@H](CCCNC(=N)N)NC(=O)[C@@H](Cc2ccccc2)NC(=O)[C@H](Cc2c[nH]cn2)NC(=O)[C@H](CCC(=O)O)NC1=O [gallium-67 labelled]; system = normal C57 mice, stomach; conditions = intravenous, 0.037 MBq/mouse, 2 h; tissue uptake = 0.21 ± 0.02 %ID/g

A few entries again:
SMILES = O=C([O-])CN1CCN(CC(=O)[O-])CCN(CC(=O)NCCc2ccc3c(c2)C2C=CCC2C(c2cc4c(cc2Br)OCO4)N3)CCN(CC(=O)[O-])CC1.[111In+3] (centres unmarked); system = mice with Hec50 tumour xenograft, mammary gland; conditions = 4 h; tissue uptake = 0.5 ± 0.07 %ID/g
